Published values of several laboratories.
Each line is one published result; not all experiments were run side by side. “And” joins repeats or separate records; there may be more than shown. ± gives the spread as reported.
UniProt O43781, sequence (whole entry, looked up): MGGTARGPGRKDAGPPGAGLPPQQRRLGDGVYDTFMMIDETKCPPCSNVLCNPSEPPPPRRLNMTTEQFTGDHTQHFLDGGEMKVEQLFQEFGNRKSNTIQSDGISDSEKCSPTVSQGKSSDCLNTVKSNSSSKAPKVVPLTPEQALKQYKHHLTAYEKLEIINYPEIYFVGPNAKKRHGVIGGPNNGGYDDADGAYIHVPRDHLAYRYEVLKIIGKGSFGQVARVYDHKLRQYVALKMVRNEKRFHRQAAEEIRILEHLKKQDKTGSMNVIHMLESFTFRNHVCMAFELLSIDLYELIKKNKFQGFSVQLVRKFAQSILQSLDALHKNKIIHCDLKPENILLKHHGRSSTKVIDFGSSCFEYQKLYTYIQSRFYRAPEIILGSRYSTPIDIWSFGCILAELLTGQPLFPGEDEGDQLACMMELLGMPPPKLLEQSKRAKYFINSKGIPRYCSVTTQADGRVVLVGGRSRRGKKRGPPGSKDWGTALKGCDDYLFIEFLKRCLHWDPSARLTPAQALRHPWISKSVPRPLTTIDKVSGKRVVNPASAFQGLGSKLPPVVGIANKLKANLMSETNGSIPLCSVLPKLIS

Structure (SMILES) | tested on | assay | test system | setting | scale | quantity | value
CCOc1cncc(-c2ccc(NC(=O)C3(c4ccnc(NS(=O)(=O)C5CC5)n4)CCOCC3)nc2)n1 | KG-1 | cell proliferation, CellTiter-Glo | – | 72 h | – | IC50 | 95 nM
CSC(=NN=C(C)c1ccc(S(=O)(=O)N2CCC(C)CC2)cc1)N(C)C | HCT-116 | flow cytometry | – | 3.66 µM (IC50), 72 h | – | cells in S phase | 31.5%
[BH3-][P+]1(c2ccccc2)CCCCC1 | HCT-116 | MTT | – | 72 h | reference: IC50 HaCaT over IC50 HCT-116 | selectivity index | 2.03
COc1cc(N2CCN(C(=O)CCOCCNC(=O)[C@@H]3CCCN3)CC2)ccc1Nc1ncc(Cl)c(Nc2ccccc2P(C)(C)=O)n1 | NCI-H3122 | flow cytometry | – | 500 nM, 24 h | – | G2 phase cells | 9.5% and 8.99% and 10.3%
Cn1c(=O)n(C2CCC(=O)NC2=O)c2ccc(C3CCN(CC(=O)Nc4cccc(CS(=O)(=O)N5CC[C@H](Nc6cccc(-c7sc(C(=O)O)c(OCC(=O)O)c7Cl)c6)CC5(C)C)c4)CC3)cc21 (stereo partly drawn) | B16-F10 | HTRF, measured: phospho-STAT1 Tyr701 | – | 0.37 µM, together with: IFN-γ | reference: DMSO | fold change | 5.83 and 5.5 and 5.52 and 5.63 and 6.05 and 5.23
Cc1ccncc1.[Cl-].[Cl-].[Ru+2].c1cc(-c2ccc3cccnc3n2)nc(-c2ccc3cccnc3n2)c1.c1ccc2cc3nc4c5cccnc5c5ncccc5c4nc3cc2c1 | B16-F10 | cell viability | – | dark | – | EC50 | 63200 ± 1000 nM
COC1CN([C@H]2CC[C@H]([C@@]3(C)Oc4c(Cl)cc(C(=O)NCc5c(SC)cc(C)[nH]c5=O)c(C)c4O3)CC2)C1 | – | RNA-seq, measured: RHBDF1 | human, whole blood | dose not given, 24 h | reference: pretreatment baseline | log2 fold change | 3.42
CC(C)(C)c1cc(-c2ccc3cc4ccccc4nc3n2)nc(-c2ccc3cc4ccccc4nc3n2)c1.Cc1ccncc1.[Cl-].[Cl-].[Ru+2].c1ccc2cc3nc4c5cccnc5c5ncccc5c4nc3cc2c1 | B16-F10 | cytotoxicity, resazurin | – | dark | – | EC50 | 58800 nM
CC(=O)[O-].O.O.O.O.[Mn+2].[O-]c1ccc(Br)cc1C=NCCN1CCOCC1 | – | FRAP | – | 80 µM | – | ferric reducing power | 14.2%
CCN(CC)CC(=O)Nc1cccc(-n2cc(-c3ccc4ccc(-c5cn(-c6cccc(NC(=O)CN(CC)CC)c6)nn5)cc4c3)nn2)c1 | RCC4 | PCR angiogenesis array, measured: PROK2 | – | 5 x IC50, 2 h, normoxia | reference: untreated | fold regulation | 1.02
COc1ccc(NC(=O)c2c(Nc3ccccc3)sc(C(=O)N/N=C/c3ccc(OC)c(OC)c3)c2NC(C)=O)cc1 | HCT-116 | cell growth or viability, SRB | – | 10 nM, 48 h | – | viability | 81.3%
CN1CCC(N[C@H]2CCc3[nH]c4c(C(N)=O)ccc(-c5ccccc5Cl)c4c3C2)CC1 | HuCCT-1 | cell growth or viability | – | – | – | IC50 | 1000 nM
CCCC[C@H](NC(=O)COCCOCCNC(=O)CN1CCN(CC(=O)O)CCN(CC(=O)O)CC1)C(=O)N[C@H]1CC(=O)NCCCC[C@@H](C(N)=O)NC(=O)[C@H](Cc2c[nH]c3ccccc23)NC(=O)[C@H](CCCNC(=N)N)NC(=O)[C@@H](Cc2ccccc2)NC(=O)[C@H](Cc2c[nH]cn2)NC1=O [technetium-99m labelled] | – | – | C57 mouse, stomach | intravenous, 0.037 MBq, 4 h | – | tissue uptake | 0.28 ± 0.1 %ID/g
CC(C)c1ccc(N(C)c2ccc3c(c2)OCC[C@H]3CNc2cnccc2C(=O)O)cc1 | 5637 | cell growth, CellTiter-Glo | – | 7 days | – | IC50 | 6.11 nM
Cc1nc(Nc2ncc(C(=O)Nc3c(C)cccc3Cl)s2)cc(N2CCN(C(=O)CN)CC2)n1 | KU812 | flow cytometry | – | concentration not given, 1 h | – | early apoptotic cells | 8.81% and 6.36% and 6.81%
C=CC(=O)Nc1cccc(Cn2ncc3cnc(Nc4cnn(CCOC)c4)nc32)c1 | BLK human | binding, KINOMEscan | – | 100 nM | lower = stronger binding | percent of control | 1.6%
CN1CCCNC(=O)c2cccc(c2)C(=O)NCCCN(C)CCCNc2cccc3c2C(=O)c2cccc(c2C3=O)NCCC1 | SAS | RNA-Seq, measured: WWC2 mRNA | – | 1 µM, 6 h | reference: untreated cells | log2 fold change | -1.18
CCN(C(=O)c1cc(F)ccc1Oc1nncnc1N1CCC2(C1)CN([C@H](CCCN(C)CCOC)C(C)C)C2)C(C)C | peripheral blood mononuclear cells | – | – | 72 h | – | GI50 | > 10000 nM
Cn1ncc2cc(-c3cncc(Cl)c3N3CCC4(CCNC4=O)CC3)ccc21 | LS174T | gene expression, microarray, measured: NOD2 mRNA | – | concentration not given, 24 h | reference: untreated cells | log2 fold change | 3.38
COc1cccc2c1cc1c3c(cc4c(c32)OCO4)[C@@H]2c3c4c5c(cc6c(c5c5cccc(OC)c35)OCO6)CCN4[C@@H]2N1C (racemic) | S102 | cytotoxicity, MTT | – | 50 µg/mL, 48 h | – | inhibition | < 50%

Structure (SMILES) | tested on | assay | test system | setting | scale | quantity | value
C=CC(=O)N1CC2C(=O)N(CCN(C)C)c3c(c4cc(Cl)c(-c5c(O)cccc5F)nc4n(-c4c(C)ccnc4C(C)C)c3=O)N2CC1C (stereo not drawn) | NCI-H358 | Western blot | – | 1 nM, 4 h | – | p-AKT/AKT ratio | decreased
C=C(NC(=O)c1csc(-c2nc3c(cc2O)-c2nc(cs2)C(=O)NC(C(C)O)C(=O)NC(=C(C)OC)c2nc(cs2)C(=O)NC2c4nc(cs4)C(=O)NC(COC(=O)c4c5c6c(cccc6n4O)COC(=O)C(OC4CC(C)(O)C(N(C)C)C(C)O4)C2OC5)c2nc-3cs2)n1)C(N)=O (stereo not drawn) | – | – | ICR mice, Streptococcus pneumoniae ATCC 49169 infected, immunocompromised, blood | intravenous, 2 mg/kg twice daily | – | AUC(0-t) | 0.11 µM·h
CNS(=O)(=O)Nc1nccc(Cc2c(C)c3ccc(Oc4ncccc4F)cc3oc2=O)c1F | KMM-1 | cell viability | – | 7 days | – | IC50 | 11.3 nM
C=CC(=O)N1[C@H](c2ccc3c(c2)OCO3)c2[nH]c3ccccc3c2C[C@@H]1C(=O)NC1CC1 | rat DRG neurons | – | – | 10 µM, 48 h, together with: vincristine 40 nM | – | neuron degeneration | 10.4% and 9.97%
CSC(=S)N/N=C(\C)c1ccc(Nc2nnc(-c3ccc(Cl)cc3)c3ccccc23)cc1 | HepG2 | cell growth or viability, MTT | – | 0.156 µM, 24 h | – | viability | 51.3%
Cc1nn(-c2cccc(N)c2)c(=O)c2cnc(Nc3ccc(N4CCNCC4)cc3)nc12 | DYRK3 (Homo sapiens, UniProt O43781) | enzyme activity, inhibitor | – | – | – | IC50 | > 10000 nM
COC1=C2CC(C)CC(OC)C(O)C(C)C=C(C)C(OC(N)=O)C(OC)C=CC=C(C)C(=O)NC(=CC1=O)C2=O (stereo not drawn) | Rh30 | ChIP-seq, measured: H3K36me3 peak | – | concentration not given, SOCS3 TTS chr17:76347000-76357399 | reference: untreated control | log fold change | -0.825
CCC1NC2CC3(C(=O)N(OC)c4ccccc43)C3OCC2C1C3O (stereo not drawn) | HT-22 | CCK-8 | – | up to 100 µM, 24 h | – | viability | no effect
O=C(Nc1cnccc1-c1ccc([18F])nc1)c1ccnc(NC(=O)C2CC2)c1 | – | – | FVB/NJ mice, both sexes, brain | intravenous, 50 min, median, P-gp inhibitor pretreatment, together with: tariquidar 15 mg/kg iv | – | SUV | 0.152
Cc1ncsc1-c1ccc(C(C)NC(=O)C2CC(O)CN2C(=O)C(NC(=O)CCCCCCCCCCN2CCCC(Nc3ncc(Cl)c(Nc4ccccc4S(=O)(=O)C(C)C)n3)C2)C(C)(C)C)cc1 (stereo not drawn) | 22Rv1 | RNA-seq, measured: LMAN2L mRNA | – | concentration not given | reference: DMSO | log2 fold change | -1.37
COc1ccc(NC(=O)c2ccc3[nH]c(-c4ccc(N(C)C)cc4)nc3c2)cn1 | HCT116 | IncuCyte | – | concentration not given, 18 h | – | dead cell to confluence ratio | 78.6 and 193 and 342
CO[C@@H]1[C@@H](OC(N)=O)[C@@H](O)[C@H](Oc2ccc3c(O)c(NC(=O)c4ccc(O)c(CC=C(C)C)c4)c(=O)oc3c2C)OC1(C)C | HCT-116 BRCA2-/- | – | – | 150 µM, replicate 2 | – | colony count | 13
O=C(N/N=C/c1ccc2c(ccc[n+]2Cc2ccccc2)c1)c1ccc2ccc(C(=O)N/N=C/c3ccc4c(ccc[n+]4Cc4ccccc4)c3)nc2n1 | telomeric G4 DNA hybrid-2 | FRET melting | – | 1 µM, DNA 0.2 µM, together with: duplex DNA competitor 10 µM | – | ΔTm | 19.2 ± 0.9 °C
O=C(C[Se]C(=O)c1cc2ccccc2[nH]1)Nc1cccc(C(F)(F)F)c1 | NCI60 breast subpanel | cell growth | – | 10 µM, 48 h, one-dose | – | mean growth percent | -62%
O=C(N/N=C/c1ccc2c(ccc[n+]2Cc2ccccc2)c1)c1cccc(C(=O)N/N=C/c2ccc3c(ccc[n+]3Cc3ccccc3)c2)n1 | telomeric G4 DNA hybrid-2 | FRET melting | – | 1 µM, DNA 0.2 µM, together with: duplex DNA competitor 10 µM | – | ΔTm | 21.5 ± 1 °C
CC(C)(C)c1cc(-c2ccc3cccnc3n2)nc(-c2ccc3cccnc3n2)c1.[Cl-].[Cl-].[Ru+2].c1ccc2cc3nc4c5cccnc5c5ncccc5c4nc3cc2c1 | B16-F10 | – | – | visible light 100 J/cm2 | reference: dark EC50 over light EC50 | phototherapeutic index | 13
CCCCCCCCCCCC(=O)N[C@H](CO)C[C@@H](O)c1ccccc1 | HeLa | CERT activity, HPLC-MS/MS lipidomics, measured: ceramide 22 | – | 1 µM, 24 h, not cell-number normalised | – | ceramide level | 2490 pmol/sample and 2970 pmol/sample and 2480 pmol/sample
Cc1c(Cl)cccc1Nc1ccccc1C(=O)[Se]CC(=O)Nc1cccc(C(F)(F)F)c1 | NCI60 breast subpanel | NCI60 five-dose screen | – | – | – | GI50 | 1950 nM
C=CC(=O)N1CCCC(n2c(=O)c3ncccc3n(Cc3ccc(Oc4ccccc4)cc3)c2=O)C1 (stereo not drawn) | SU-DHL-8 | cell growth or viability, MTT | – | 72 h | – | IC50 | 300 nM

Repeated from above:
Structure (SMILES) | tested on | assay | test system | setting | scale | quantity | value
CCCC[C@H](NC(=O)COCCOCCNC(=O)CN1CCN(CC(=O)O)CCN(CC(=O)O)CC1)C(=O)N[C@H]1CC(=O)NCCCC[C@@H](C(N)=O)NC(=O)[C@H](Cc2c[nH]c3ccccc23)NC(=O)[C@H](CCCNC(=N)N)NC(=O)[C@@H](Cc2ccccc2)NC(=O)[C@H](Cc2c[nH]cn2)NC1=O [technetium-99m labelled] | – | – | C57 mouse, stomach | intravenous, 0.037 MBq, 4 h | – | tissue uptake | 0.28 ± 0.1 %ID/g
CC(C)c1ccc(N(C)c2ccc3c(c2)OCC[C@H]3CNc2cnccc2C(=O)O)cc1 | 5637 | cell growth, CellTiter-Glo | – | 7 days | – | IC50 | 6.11 nM
Cc1nc(Nc2ncc(C(=O)Nc3c(C)cccc3Cl)s2)cc(N2CCN(C(=O)CN)CC2)n1 | KU812 | flow cytometry | – | concentration not given, 1 h | – | early apoptotic cells | 8.81% and 6.36% and 6.81%
C=CC(=O)Nc1cccc(Cn2ncc3cnc(Nc4cnn(CCOC)c4)nc32)c1 | BLK human | binding, KINOMEscan | – | 100 nM | lower = stronger binding | percent of control | 1.6%
CN1CCCNC(=O)c2cccc(c2)C(=O)NCCCN(C)CCCNc2cccc3c2C(=O)c2cccc(c2C3=O)NCCC1 | SAS | RNA-Seq, measured: WWC2 mRNA | – | 1 µM, 6 h | reference: untreated cells | log2 fold change | -1.18
CCN(C(=O)c1cc(F)ccc1Oc1nncnc1N1CCC2(C1)CN([C@H](CCCN(C)CCOC)C(C)C)C2)C(C)C | peripheral blood mononuclear cells | – | – | 72 h | – | GI50 | > 10000 nM
